Results from different studies.
Numbered parts are unrelated; each lists some results of a single study. Substitutions count along the parent as printed.

Series 1 — technique: universal PBM; molecule type: double-stranded DNA, one strand shown; sample: in vitro; tested at: not given; direction: higher = stronger binding; quantity: E-score
Target: Sal-like protein 4, full length isoform B (SALL4, Homo sapiens, UniProt Q9UJQ4-2, residues 1-616)
Notes: 8-mer, flanks averaged, mean of replicates
CATGCCAC: -0.131
CAACATCC: -0.0868
GCGGAAAA: 0.172
GCAAGTAC: 0.103
CAAACAAA: 0.135
CGCGATAC: -0.0484
ATCCAGAA: 0.159
GACGACCA: -0.0741
GCCCTTTA: -0.0693
ACCGGCCA: -0.396
CGCTCTTA: -0.0742
AAAAGTCC: -0.0586
AGGACCAT: -0.047
CTATCACC: -0.062
CTAGCTAA: -0.13
AAATGAGA: 0.182
CCTCCTCC: -0.266
ACCACGGT: -0.212
GGACTAGA: -0.0851
CATCCTGA: -0.019
CCCTCTAC: -0.205

Series 2 — target: CCNB3, cyclin fold, Cln2 fusion (human); technique: yeast growth competition, sequencing; sample: yeast; notes: weak parent motif; baseline: not given; direction: higher = stronger binding; quantity: normalised enrichment score
Starting sequence: INSM1 docking peptide (human); PKAIRKLHFEDEV; partner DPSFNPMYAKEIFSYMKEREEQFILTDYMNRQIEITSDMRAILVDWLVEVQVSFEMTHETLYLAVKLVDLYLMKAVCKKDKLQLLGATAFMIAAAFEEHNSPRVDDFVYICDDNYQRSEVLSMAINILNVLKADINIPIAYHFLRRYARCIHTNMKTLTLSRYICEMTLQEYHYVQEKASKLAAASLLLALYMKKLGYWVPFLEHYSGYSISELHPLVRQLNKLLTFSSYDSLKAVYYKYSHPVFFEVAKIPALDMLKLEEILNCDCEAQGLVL
PKAITKLHFEDEV [R5T]: -0.119
PKAIRSLHFEDEV [K6S]: 0.149
PKAIPKLHFEDEV [R5P]: -0.166
PKLIRKLHFEDEV [A3L]: 0.0533
PKAIRKLHFTDEV [E10T]: 0.152
PKAIRKLHFEDQV [E12Q]: 0.311
PKAIRLLHFEDEV [K6L]: 0.657
PKAIRKLHFETEV [D11T]: -0.156
PKAIRKLLFEDEV [H8L]: 0.857
PKAIDKLHFEDEV [R5D]: -0.0619
PRAIRKLHFEDEV [K2R]: 0.308
PKAIRGLHFEDEV [K6G]: -0.284
PKFIRKLHFEDEV [A3F]: 0.501
PKAIAKLHFEDEV [R5A]: -0.0448
PKAIRKNHFEDEV [L7N]: 0.0887
PKAIRKLPFEDEV [H8P]: 0.392
PKNIRKLHFEDEV [A3N]: -0.124
PKARRKLHFEDEV [I4R]: 2.31
PKAIRKPHFEDEV [L7P]: 0.0211
PKAIRKLHFEDAV [E12A]: 0.685
PKAIRKLHVEDEV [F9V]: 0.116
PEAIRKLHFEDEV [K2E]: 0.19

Series 3 — technique: DHFR PCA, deep sequencing; sample: yeast; with: (+)-ABA 0.032 µM; baseline: wild-type fitted maximum; direction: higher = stronger binding; quantity: relative binding score
Target: ABI1, truncated, D143A, DHFR fusion (Arabidopsis thaliana)
Notes: methotrexate growth selection, single substitutions
Starting sequence: PYL1, truncated, DHFR fusion (Arabidopsis thaliana); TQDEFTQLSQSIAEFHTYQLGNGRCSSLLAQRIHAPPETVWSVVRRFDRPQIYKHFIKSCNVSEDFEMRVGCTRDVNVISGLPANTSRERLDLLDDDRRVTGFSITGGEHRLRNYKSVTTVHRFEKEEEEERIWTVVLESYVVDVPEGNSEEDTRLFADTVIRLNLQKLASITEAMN
V40Q: 1.21%
L28N: -7.69%
I33E: -0.412%
G148A: 0.517%
P36K: 9.02%
D153Y: 0.0802%
V70G: -0.788%
I162Q: 5.03%
I105W: -4.6%
Y18V: 1.22%
L138N: -12.2%
T17L: -2.49%
Y53V: 8.01%
T73L: 8.7%
R74A: 4.26%
S27P: 0.952%
N22T: 35.6%
E152S: 8.8%
R69L: 1.27%
D144N: -0.915%
E38C: 5.9%
A170C: 5%
L164G: 5.65%
I105S: -0.722%
D75L: 33.2%

Series 4 — technique: RNA Bind-n-Seq; molecule type: RNA; sample: in vitro; tested at: 200 nM; notes: whole 134-nt RNA, ends assumed; with: 150 mM KCl; baseline: input library; direction: higher = stronger binding; quantity: log2 enrichment
Target: Ras GTPase-activating protein-binding protein 1, full length (G3BP1, Homo sapiens, UniProt Q13283)
Chain of UniProt Q13283 (whole entry, looked up): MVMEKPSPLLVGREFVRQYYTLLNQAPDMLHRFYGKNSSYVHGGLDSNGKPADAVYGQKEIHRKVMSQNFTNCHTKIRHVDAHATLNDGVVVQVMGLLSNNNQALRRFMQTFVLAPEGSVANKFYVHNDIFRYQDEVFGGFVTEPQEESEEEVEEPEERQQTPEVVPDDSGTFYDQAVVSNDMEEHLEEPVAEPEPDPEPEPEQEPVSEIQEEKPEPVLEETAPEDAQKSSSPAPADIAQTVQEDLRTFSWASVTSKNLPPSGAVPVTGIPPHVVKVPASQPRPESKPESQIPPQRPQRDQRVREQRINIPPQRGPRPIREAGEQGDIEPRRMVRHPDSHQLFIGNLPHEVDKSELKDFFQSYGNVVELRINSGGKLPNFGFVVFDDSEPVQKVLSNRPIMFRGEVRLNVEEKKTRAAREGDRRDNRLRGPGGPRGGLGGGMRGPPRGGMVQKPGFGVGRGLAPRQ
Constant ends, left off below: GGGAGUUCUACAGUCCGACGAUC … UGGAAUUCUCGGGUGUCAAGG
ACCAUGCAGGUGGGCAUCUUUGGGAAGUGGGGCAAGGGGGGGAUAGGGAGGGGGGUAACACUUUGGGAACAGGUGGUACCAGGUCGUUUC: 1.07
ACCAUGCAGGUGGGCAUCUUUGGGAAGUGGGGCAAGGGGGGGAUAGGGAGGGGGGUAAAACUUUGGGAACAGGUGGUCCCAGGUCGUUUC: 1.08
GAAAUUUGGUUAUGUGGAUUUUGAAUCUGCUGAAGACCUGGAGAAAGCGUUGGAACUCACUGGUUUGAAAGUCUUUGGCAAUGAAAUUAA: -2.13
GUCCUGUGCUACACAUCGUAUGUACCGAAUCGGCCCCCCGGGCCCCCCGGGCCCCCCGGAAAGUAUUAUGUUACGCCGUUCGGAUCUGCA: -0.353
CCUCAAGUCCUGUGCUACACAUCGUAUGUACCGAAUCGGAAAGGUGGUUUGGAAAGUAUUAUGUUACGCCGUUCGGAUCUGCACUUCCAG: -0.529
UCCUGUGCUACACAUCGUAUGUACCGAAUCGGGUUUUUUGGGGUUUUUUGGGUUUUUUGGAAAGUAUUAUGUUACGCCGUUCGGAUCUGC: -0.0627
CCUCAAGUCCUGUGCUACACAUCGUAUGUACCGAAUCGGCGGGGCGGGCGGGGAAAGUAUUAUGUUACGCCGUUCGGAUCUGCACUUCCA: 1.11
AAGUCCUGUGCUACACAUCGUAUGUACCGAAUCGGUUUUGGGUUUUGGGUUUUGGGAAAGUAUUAUGUUACGCCGUUCGGAUCUGCACUU: -0.923
CAUCCUUUGGGCCCCUCAAGGCCUUCAACCUGGUCAAGGACAGUGCCACGGGGCUCUCCAAGGGCUACGCCUUCUGUGAGUACGUGGACA: -1.47

For quick reference, copied from above (series 3):
V70G: -0.788%
I162Q: 5.03%
I105W: -4.6%
Y18V: 1.22%
L138N: -12.2%
T17L: -2.49%
Y53V: 8.01%
T73L: 8.7%
R74A: 4.26%
S27P: 0.952%
N22T: 35.6%
E152S: 8.8%
